Results pooled from the literature.
Protocols differ between the studies behind these lines. ± marks the error that the study gave.
FFAR2: Free fatty acid receptor 2 (FFAR2, Homo sapiens, UniProt O15552)
Chain of UniProt O15552 (whole entry, looked up): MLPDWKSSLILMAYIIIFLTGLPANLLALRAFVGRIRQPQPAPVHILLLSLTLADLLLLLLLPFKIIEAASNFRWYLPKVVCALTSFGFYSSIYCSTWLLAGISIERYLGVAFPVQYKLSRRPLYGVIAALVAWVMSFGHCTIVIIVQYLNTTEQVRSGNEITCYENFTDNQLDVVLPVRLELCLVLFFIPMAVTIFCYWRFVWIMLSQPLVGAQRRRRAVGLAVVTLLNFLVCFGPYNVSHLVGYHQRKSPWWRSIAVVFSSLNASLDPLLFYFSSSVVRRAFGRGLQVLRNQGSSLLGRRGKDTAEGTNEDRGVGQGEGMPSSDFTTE
GRPR: Gastrin-releasing peptide receptor (GRPR, Homo sapiens, UniProt P30550)
Chain of UniProt P30550 (whole entry, looked up): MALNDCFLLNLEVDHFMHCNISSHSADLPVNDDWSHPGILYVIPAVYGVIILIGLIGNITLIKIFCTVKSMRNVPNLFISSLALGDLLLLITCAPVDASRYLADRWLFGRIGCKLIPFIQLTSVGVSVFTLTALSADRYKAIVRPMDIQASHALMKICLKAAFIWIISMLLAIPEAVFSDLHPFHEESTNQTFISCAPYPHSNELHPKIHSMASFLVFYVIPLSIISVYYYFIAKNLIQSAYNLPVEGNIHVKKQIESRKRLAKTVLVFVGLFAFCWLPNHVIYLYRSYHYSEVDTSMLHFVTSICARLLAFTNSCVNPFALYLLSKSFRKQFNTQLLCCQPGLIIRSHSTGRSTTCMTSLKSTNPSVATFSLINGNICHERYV
Sctr: Sctr (Rattus norvegicus, UniProt P23811)
Chain of UniProt P23811 (whole entry, looked up): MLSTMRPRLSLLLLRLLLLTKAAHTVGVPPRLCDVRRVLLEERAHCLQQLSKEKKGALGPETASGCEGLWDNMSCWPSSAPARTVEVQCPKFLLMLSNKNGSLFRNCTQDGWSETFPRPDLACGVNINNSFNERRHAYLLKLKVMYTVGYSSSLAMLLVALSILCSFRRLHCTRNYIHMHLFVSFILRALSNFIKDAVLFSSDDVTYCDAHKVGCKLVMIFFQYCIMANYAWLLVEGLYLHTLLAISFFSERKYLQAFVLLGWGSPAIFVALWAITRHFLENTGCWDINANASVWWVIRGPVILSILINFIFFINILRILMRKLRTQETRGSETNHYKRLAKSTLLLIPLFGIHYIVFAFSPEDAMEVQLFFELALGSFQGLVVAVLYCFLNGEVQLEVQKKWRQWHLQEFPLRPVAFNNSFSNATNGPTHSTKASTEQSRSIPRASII
Chain of UniProt Q6DWJ6 (whole entry, looked up): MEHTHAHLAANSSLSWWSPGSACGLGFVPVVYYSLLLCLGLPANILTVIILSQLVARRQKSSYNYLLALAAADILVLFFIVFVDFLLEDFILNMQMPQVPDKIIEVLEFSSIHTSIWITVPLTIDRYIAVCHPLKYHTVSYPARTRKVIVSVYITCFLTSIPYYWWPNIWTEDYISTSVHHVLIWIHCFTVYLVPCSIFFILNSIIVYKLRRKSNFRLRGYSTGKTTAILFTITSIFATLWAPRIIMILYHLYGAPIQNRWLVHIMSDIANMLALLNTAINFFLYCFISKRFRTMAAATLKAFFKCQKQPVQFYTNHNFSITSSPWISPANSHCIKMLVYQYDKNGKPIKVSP
Chain of UniProt P08510 (whole entry, looked up): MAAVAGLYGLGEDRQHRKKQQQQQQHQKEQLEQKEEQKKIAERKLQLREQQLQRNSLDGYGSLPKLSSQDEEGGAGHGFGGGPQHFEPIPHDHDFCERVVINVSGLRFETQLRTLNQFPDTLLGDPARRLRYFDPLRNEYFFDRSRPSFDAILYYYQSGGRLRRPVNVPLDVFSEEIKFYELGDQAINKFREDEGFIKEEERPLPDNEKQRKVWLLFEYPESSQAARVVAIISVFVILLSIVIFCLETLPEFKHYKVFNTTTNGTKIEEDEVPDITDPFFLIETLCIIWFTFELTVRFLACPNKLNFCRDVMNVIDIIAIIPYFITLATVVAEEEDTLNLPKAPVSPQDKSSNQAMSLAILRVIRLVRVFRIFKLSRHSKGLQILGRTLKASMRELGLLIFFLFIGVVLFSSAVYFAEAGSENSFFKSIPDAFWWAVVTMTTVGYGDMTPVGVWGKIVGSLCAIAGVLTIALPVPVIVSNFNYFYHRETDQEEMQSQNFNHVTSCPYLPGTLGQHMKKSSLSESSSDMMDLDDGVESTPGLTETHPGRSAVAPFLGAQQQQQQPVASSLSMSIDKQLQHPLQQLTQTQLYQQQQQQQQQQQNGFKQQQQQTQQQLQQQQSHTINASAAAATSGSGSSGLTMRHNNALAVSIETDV
Chain of UniProt O95838 (whole entry, looked up): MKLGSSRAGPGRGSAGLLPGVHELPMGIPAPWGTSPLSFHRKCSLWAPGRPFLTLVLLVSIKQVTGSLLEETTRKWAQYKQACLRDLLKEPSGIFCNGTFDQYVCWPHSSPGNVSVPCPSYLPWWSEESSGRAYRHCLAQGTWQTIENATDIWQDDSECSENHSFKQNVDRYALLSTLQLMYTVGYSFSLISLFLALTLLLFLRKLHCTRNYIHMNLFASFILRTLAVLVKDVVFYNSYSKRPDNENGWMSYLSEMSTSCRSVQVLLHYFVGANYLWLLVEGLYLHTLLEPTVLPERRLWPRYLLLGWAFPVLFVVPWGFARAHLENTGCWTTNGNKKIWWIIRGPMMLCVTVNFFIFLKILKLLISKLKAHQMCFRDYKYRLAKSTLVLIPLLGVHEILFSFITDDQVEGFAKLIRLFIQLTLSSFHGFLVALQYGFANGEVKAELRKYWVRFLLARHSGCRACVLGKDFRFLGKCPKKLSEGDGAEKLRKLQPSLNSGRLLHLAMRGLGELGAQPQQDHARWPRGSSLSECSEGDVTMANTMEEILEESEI
Chain of UniProt Q1MX30 (whole entry, looked up): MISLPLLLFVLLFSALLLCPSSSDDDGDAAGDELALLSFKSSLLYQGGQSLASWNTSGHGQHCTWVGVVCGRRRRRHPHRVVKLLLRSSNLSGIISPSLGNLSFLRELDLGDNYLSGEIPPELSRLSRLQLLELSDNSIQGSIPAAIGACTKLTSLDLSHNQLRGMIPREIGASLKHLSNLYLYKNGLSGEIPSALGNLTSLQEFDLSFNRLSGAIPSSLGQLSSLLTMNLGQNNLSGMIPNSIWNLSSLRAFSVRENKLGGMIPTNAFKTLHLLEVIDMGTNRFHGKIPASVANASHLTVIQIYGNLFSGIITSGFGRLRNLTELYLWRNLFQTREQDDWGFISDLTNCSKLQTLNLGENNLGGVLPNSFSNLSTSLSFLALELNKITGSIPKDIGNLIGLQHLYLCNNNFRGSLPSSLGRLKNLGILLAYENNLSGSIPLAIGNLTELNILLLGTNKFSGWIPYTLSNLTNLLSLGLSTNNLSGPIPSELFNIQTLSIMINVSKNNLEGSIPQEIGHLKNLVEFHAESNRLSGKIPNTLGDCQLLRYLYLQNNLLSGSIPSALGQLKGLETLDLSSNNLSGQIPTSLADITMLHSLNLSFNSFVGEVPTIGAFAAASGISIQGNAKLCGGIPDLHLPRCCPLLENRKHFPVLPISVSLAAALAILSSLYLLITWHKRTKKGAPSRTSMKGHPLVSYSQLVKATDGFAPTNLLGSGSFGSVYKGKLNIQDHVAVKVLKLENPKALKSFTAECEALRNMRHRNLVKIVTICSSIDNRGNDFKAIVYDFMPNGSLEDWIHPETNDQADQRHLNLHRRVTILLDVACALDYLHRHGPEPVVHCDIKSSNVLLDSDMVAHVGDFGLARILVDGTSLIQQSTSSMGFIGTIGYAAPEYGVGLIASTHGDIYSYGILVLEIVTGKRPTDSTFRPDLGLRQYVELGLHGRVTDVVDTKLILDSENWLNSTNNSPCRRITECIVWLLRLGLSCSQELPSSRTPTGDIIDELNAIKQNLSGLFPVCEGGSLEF
Chain of UniProt Q60755 (whole entry, looked up): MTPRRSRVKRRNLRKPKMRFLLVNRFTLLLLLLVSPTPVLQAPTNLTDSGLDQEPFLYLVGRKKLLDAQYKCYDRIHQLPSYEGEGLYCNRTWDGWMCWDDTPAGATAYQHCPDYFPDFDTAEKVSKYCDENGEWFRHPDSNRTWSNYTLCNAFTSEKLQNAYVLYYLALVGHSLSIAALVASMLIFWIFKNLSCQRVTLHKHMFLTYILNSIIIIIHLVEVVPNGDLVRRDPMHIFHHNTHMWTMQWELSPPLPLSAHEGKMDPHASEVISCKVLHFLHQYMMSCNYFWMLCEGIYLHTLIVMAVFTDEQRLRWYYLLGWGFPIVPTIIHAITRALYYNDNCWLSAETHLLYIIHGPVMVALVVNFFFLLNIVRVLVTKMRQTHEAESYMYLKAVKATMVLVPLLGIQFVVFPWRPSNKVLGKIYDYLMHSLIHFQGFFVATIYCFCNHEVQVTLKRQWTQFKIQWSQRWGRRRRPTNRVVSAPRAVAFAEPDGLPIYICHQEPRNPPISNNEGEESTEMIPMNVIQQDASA
Chain of UniProt P32241 (whole entry, looked up): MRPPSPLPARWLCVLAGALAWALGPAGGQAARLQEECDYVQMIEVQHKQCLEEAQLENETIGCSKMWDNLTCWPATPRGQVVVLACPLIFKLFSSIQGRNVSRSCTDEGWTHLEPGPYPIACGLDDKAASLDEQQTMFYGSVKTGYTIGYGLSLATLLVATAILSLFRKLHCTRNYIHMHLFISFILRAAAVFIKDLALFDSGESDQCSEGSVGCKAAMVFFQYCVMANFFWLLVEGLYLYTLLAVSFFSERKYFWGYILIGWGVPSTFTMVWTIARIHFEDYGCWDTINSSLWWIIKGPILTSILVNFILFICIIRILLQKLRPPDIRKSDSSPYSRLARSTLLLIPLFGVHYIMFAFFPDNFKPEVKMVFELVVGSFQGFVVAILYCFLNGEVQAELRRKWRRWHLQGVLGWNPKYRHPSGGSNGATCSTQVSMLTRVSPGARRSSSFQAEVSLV

The EC50 of `C/C=C(/C)C(=O)O` is reported as 195 µM (FFAR2; agonist).
For `CCC(CC)N[C@H](Cc1ccccc1)C(=O)N[C@@H](CCC(N)=O)C(=O)N[C@@H](Cc1c[nH]c2ccccc12)C(=O)N[C@@H](C)C(=O)N[C@H](C(=O)N[C@H](C)C(=O)N[C@@H](Cc1c[nH]cn1)C(=O)N[C@@H](CC(C)C)C(=O)N[C@@H](CC(C)C)C(N)=O)C(C)C`, the EC50 was 0.017 ± 0.001 µM (GRPR; inositol phosphate formation, agonist; HuTu80; 45 min, 37 °C; baseline: 1 µM GRP).
`CC[C@H](C)[C@H](NC(=O)[C@H](Cc1ccccc1)NC(=O)[C@H](CC(=O)O)NC(=O)[C@H](CCCNC(=N)N)NC(=O)[C@H](C)NC(=O)[C@H](C)NC(=O)[C@H](CC(C)C)NC(=O)[C@H](CC(N)=O)NC(=O)[C@H](CC(=O)O)NC(=O)[C@H](CC(C)C)NC(=O)[C@@H](NC(=O)[C@@H](NC(=O)[C@H](CC(N)=O)NC(=O)[C@H](CCSC)NC(=O)[C@H](CCC(=O)O)NC(=O)[C@H](CC(=O)O)NC(=O)[C@H](CO)NC(=O)[C@H](Cc1ccccc1)NC(=O)[C@H](CO)NC(=O)[C@@H](C)NC(=O)[C@H](CC(=O)O)NC(=O)[C@H](C)NC(=O)[C@@H](N)Cc1c[nH]cn1)[C@@H](C)O)[C@@H](C)CC)C(=O)N[C@@H](CC(N)=O)C(=O)N[C@@H](Cc1c[nH]c2ccccc12)C(=O)N[C@@H](CC(C)C)C(=O)N[C@H](C(=O)N[C@@H](CCC(N)=O)C(=O)N[C@H](C(=O)N[C@@H](CCCCN)C(=O)N[C@H](C(=O)N[C@H](C(=O)N[C@@H](CC(=O)O)C(N)=O)[C@@H](C)O)[C@@H](C)CC)[C@@H](C)O)[C@@H](C)CC` has an EC50 of 0.00015 µM (GLP2R (Homo sapiens, UniProt O95838); agonist).
With `C[C@H](N)C(=O)N[C@@H](C)C(=O)N[C@@H](Cc1c[nH]c2ccccc12)C(=O)N[C@@H](CC(=O)O)C(=O)N[C@@H](C)C(=O)N[C@H](C)C(=O)O` the EC50 was 78 µM (Sctr; cAMP, agonist, TR-FRET).
`CC(C)[C@H](NC(=O)[C@@H](N)Cc1c[nH]cn1)C(=O)NCC(=O)NCC(=O)NCC(=O)N[C@@H](CC(=O)O)C(=O)N[C@@H](Cc1ccc(OS(=O)(=O)O)cc1)C(=O)N1CCC[C@H]1C(=O)N1CCC[C@H]1C(=O)N1CCC[C@H]1C(=O)NCC(=O)N[C@@H](C)C(=O)N[C@@H](CC(N)=O)C(=O)N1CCC[C@H]1C(=O)N[C@@H](CCCCN)C(=O)N[C@@H](Cc1c[nH]cn1)C(=O)N[C@@H](CC(=O)O)C(=O)N1CCC[C@H]1C(=O)N1CCC[C@H]1C(=O)N1CCC[C@H]1C(=O)N[C@@H](CCCNC(=N)N)C(=O)O` has an EC50 of ~0.02 µM (Receptor kinase-like protein Xa21 (XA21, Oryza sativa subsp. indica, UniProt Q1MX30); ROS production, agonist, L-012 chemiluminescence; Oryza sativa, Kitaake Ubi::XA21, leaves; 3 h).
`CSCC[C@H](NC(=O)[C@H](Cc1ccccc1)NC(=O)[C@H](Cc1c[nH]cn1)NC(=O)CNC(=O)[C@@H](NC(=O)[C@H](C)NC(=O)[C@H](Cc1c[nH]c2ccccc12)NC(=O)[C@H](CC(C)C)NC(=O)[C@@H]1CCC(=O)N1)[C@@H](C)O)C(N)=O` gave an EC50 of 0.00708 µM (GRPR; inositol phosphate, agonist).
With `CC(C)C[C@H](NC(=O)CNC(=O)[C@H](CCC(N)=O)NC(=O)[C@H](CC(C)C)NC(=O)[C@H](CC(C)C)NC(=O)[C@H](CCCNC(=N)N)NC(=O)[C@H](CCC(N)=O)NC(=O)[C@H](CC(C)C)NC(=O)[C@H](CCCNC(=N)N)NC(=O)[C@H](C)NC(=O)[C@H](CO)NC(=O)[C@H](CC(=O)O)NC(=O)[C@H](CCC(N)=O)NC(=O)[C@H](CC(C)C)NC(=O)[C@H](CCCNC(=N)N)NC(=O)[C@H](CO)NC(=O)[C@H](CC(C)C)NC(=O)[C@H](C)NC(=O)[C@H](CO)NC(=O)[C@@H](NC(=O)[C@H](Cc1ccccc1)NC(=O)[C@@H](NC(=O)CNC(=O)[C@H](CC(=O)O)NC(=O)[C@H](CO)NC(=O)[C@@H](N)Cc1c[nH]cn1)[C@@H](C)O)[C@@H](C)O)C(=O)N[C@H](C(N)=O)C(C)C` the EC50 was 0.0085 ± 0.0018 µM (Sctr; cAMP production, agonist; CHO-SecR; 30 min, 37 °C, together with: 1 mM IBMX).
`CC[C@H](C)[C@H](NC(=O)CNC(=O)[C@H](CC(=O)O)NC(=O)[C@H](CO)NC(=O)Cc1cccnc1)C(=O)N[C@@H](Cc1ccccc1)C(=O)N[C@H](C(=O)N[C@@H](CC(=O)O)C(=O)N[C@@H](CO)C(=O)N[C@@H](Cc1ccc(O)cc1)C(=O)N[C@@H](CO)C(=O)N[C@@H](CCCNC(=N)N)C(=O)N[C@@H](Cc1ccc(O)cc1)C(=O)N[C@@H](CCCNC(=N)N)C(=O)N[C@@H](CCCCN)C(=O)N[C@@H](CCC(N)=O)C(=O)N[C@@H](CCSC)C(=O)N[C@@H](C)C(=O)N[C@H](C(=O)N[C@@H](CCCCN)C(=O)N[C@@H](CCCCN)C(=O)N[C@@H](C)C(=O)N[C@@H](CC(C)C)C(=O)N[C@@H](C)C(=O)N[C@@H](C)C(=O)N[C@H](C(=O)N[C@@H](CC(C)C)C(=O)NCC(=O)N[C@@H](CCCCN)C(=O)N[C@@H](CCCNC(=N)N)C(=O)N[C@@H](Cc1ccc(O)cc1)C(=O)N[C@@H](CCCCN)C(=O)N[C@@H](CCC(N)=O)C(=O)N[C@@H](CCCNC(=N)N)C(=O)N[C@H](C(=O)N[C@@H](CCCCN)C(=O)N[C@@H](CC(N)=O)C(=O)N[C@@H](CCCCN)C(N)=O)C(C)C)C(C)C)C(C)C)[C@@H](C)O` gave an EC50 of 0.199 µM (VIPR1 (Homo sapiens, UniProt P32241); cAMP, agonist, radiometric).
`CC(C)C[C@H](NC(=O)CNC(=O)[C@H](C)NC(=O)[C@H](CC(C)C)NC(=O)[C@H](CCCNC(=N)N)NC(=O)[C@H](Cc1cnc[nH]1)NC(=O)[C@@H](NC(=O)[C@@H](NC(=O)[C@@H]1CSSC[C@H](NC(=O)[C@H](C)N)C(=O)N[C@@H](CC(=O)O)C(=O)N[C@@H]([C@@H](C)O)C(=O)N[C@@H](C)C(=O)N[C@@H]([C@@H](C)O)C(=O)N1)C(C)C)[C@@H](C)O)C(=O)N[C@@H](CC(C)C)C(=O)N[C@@H](CO)C(=O)N[C@@H](CCCNC(=N)N)C(=O)N[C@@H](CO)C(=O)NCC(=O)NCC(=O)N[C@H](C(=O)N[C@H](C(=O)N[C@@H](CCCCN)C(=O)N[C@@H](CC(N)=O)C(=O)N[C@@H](CC(N)=O)C(=O)N[C@@H](Cc1ccccc1)C(=O)N[C@H](C(=O)N1CCC[C@H]1C(=O)N[C@H](C(=O)N[C@@H](CC(N)=O)C(=O)N[C@H](C(=O)NCC(=O)N[C@@H](CO)C(=O)N[C@@H](CCCCN)C(=O)N[C@@H](C)C(=O)N[C@@H](Cc1ccccc1)C(N)=O)C(C)C)[C@@H](C)O)C(C)C)C(C)C)C(C)C` gave an EC50 of 0.0288 µM (Calcitonin receptor (Calcr, Mus musculus, UniProt Q60755); cAMP production, agonist; COS-7 transfected with mouse CTR; 15 min, 37 °C, together with: 1 mM IBMX).
For `C#CCC(=O)O`, the EC50 was > 10000 µM (FFAR2; agonist).
With `CC(C)C[C@H](NC(=O)CNC(=O)[C@H](CCC(N)=O)NC(=O)[C@H](CC(C)C)NC(=O)[C@H](CC(C)C)NC(=O)[C@H](CCCNC(=N)N)NC(=O)[C@H](CCC(N)=O)NC(=O)[C@H](CC(C)C)NC(=O)[C@H](CCCNC(=N)N)NC(=O)[C@H](C)NC(=O)[C@H](CO)NC(=O)[C@H](CC(=O)O)NC(=O)[C@H](CCC(N)=O)NC(=O)[C@H](C)NC(=O)[C@H](CCCNC(=N)N)NC(=O)[C@H](CO)NC(=O)[C@H](CC(C)C)NC(=O)[C@H](CCC(=O)O)NC(=O)[C@H](CO)NC(=O)[C@@H](NC(=O)[C@H](Cc1ccccc1)NC(=O)[C@@H](NC(=O)CNC(=O)[C@H](CC(=O)O)NC(=O)[C@H](CO)NC(=O)[C@@H](N)Cc1c[nH]cn1)[C@@H](C)O)[C@@H](C)O)C(=O)N[C@H](C(N)=O)C(C)C` the EC50 was 0.0008 ± 0.0002 µM (Sctr; cAMP production, agonist; CHO-SecR; 30 min, 37 °C, together with: 1 mM IBMX).
With `CC(C)CN(CC(C)C)C(=O)/C=C/C=C/c1ccc2c(c1)OCO2` the EC50 was 22.2 ± 12.1 µM (Gabra3/Gabrb2 (Rattus norvegicus, UniProt P20236+P63138); GABA current potentiation, positive modulator, two-electrode voltage clamp; Xenopus oocytes expressing α3β2; together with: GABA EC3-7).
The EC50 of `CC(C)[C@H](C(=O)Nc1ncc(F)s1)c1ccc(Cl)cc1` is reported as 0.089 µM (FFAR2; cAMP, agonist, luciferase).
With `N#Cc1cc(NS(=O)(=O)c2ccccc2OC(F)(F)F)ccc1Cl` the EC50 was 35 µM (Sh (Drosophila melanogaster, UniProt P08510); conductance-voltage shift, two-electrode voltage clamp; Xenopus oocytes).
`O=C(O)C1=CCCC1` has an EC50 of 251 µM (FFAR2; agonist).
For `CSCC[C@H](NC(=O)[C@H](CO)NC(=O)[C@H](Cc1ccc(O)cc1)NC(=O)[C@@H](N)CO)C(=O)N[C@@H](CCC(=O)O)C(=O)N[C@@H](Cc1cnc[nH]1)C(=O)N[C@@H](Cc1ccccc1)C(=O)N[C@@H](CCCNC(=N)N)C(=O)N[C@@H](Cc1c[nH]c2ccccc12)C(=O)NCC(=O)N[C@@H](CCCCN)C(=O)N1CCC[C@H]1C(=O)N[C@H](C(=O)NCC(=O)N[C@@H](CCCCN)C(=O)N[C@@H](CCCCN)C(=O)N[C@@H](CCCNC(=N)N)C(=O)N[C@@H](CCCNC(=N)N)C(=O)N1CCC[C@H]1C(=O)N[C@H](C(=O)N[C@@H](CCCCN)C(=O)N[C@H](C(=O)N[C@@H](Cc1ccc(O)cc1)C(=O)N1CCC[C@H]1C(=O)N[C@@H](CC(N)=O)C(=O)NCC(=O)N[C@@H](C)C(=O)N[C@@H](CCC(=O)O)C(=O)N[C@@H](CC(=O)O)C(=O)N[C@@H](CCC(=O)O)C(=O)N[C@@H](CO)C(=O)N[C@@H](C)C(=O)N[C@@H](CCC(=O)O)C(=O)N[C@@H](C)C(=O)N[C@@H](Cc1ccccc1)C(=O)N1CCC[C@H]1C(=O)N[C@@H](CC(C)C)C(=O)N[C@@H](CCC(=O)O)C(=O)N[C@@H](Cc1ccccc1)C(=O)O)C(C)C)C(C)C)C(C)C`, the EC50 was 2.06 µM (GPR139 (Homo sapiens, UniProt Q6DWJ6); calcium mobilisation, agonist, Fluo-4; CHO transfected; mean of triplicates).
